{"data": "Published values collected from several papers", "U2AF2": "U2AF2 148-342 (Homo sapiens, UniProt P26368)", "B1": "human DDX3X; sequence looked up; chain SHVAVENALGLDQQFAGLDLNSSDNQSGGSTASKGRYIPPHLRNREATKGFYDKDSSGWSSSKDKDAYSSFGSRSDSRGKSSFFSDRGSGSRGRFDDRGRSDYDGIGSRGDRSGFGKFERGGNSRWCDKSDEDDWSKPLPPSERLEQELFSGGNTGINFEKYDDIPVEATGNNCPPHIESFSDVEMGEIIMGNIELTRYTRPTPVQKHAIPIIKEKRDLMACAQTGSGKTAAFLLPILSQIYSDGPGEALRAMKENGRYGRRKQYPISLVLAPTRELAVQIYEEARKFSYRSRVRPCVVYGGADIGQQIRDLERGCHLLVATPGRLVDMMERGKIGLDFCKYLVLDEADRMLDMGFEPQIRRIVEQDTMPPKGVRHTMMFSATFPKEIQMLARDFLDEYIFLAVGRVGSTSENITQKVVWVEESDKRSFLLDLLNATGKDSLTLVFVETKKGADSLEDFLYHEGYACTSIHGDRSQRDREEALHQFRSGKSPILVATAVAARGLDISNVKHVINFDLPSDIEEYVHRIGRTGRVGNLGLATSFFNERNINITKDLLDLLVEAKQEVPSWLENMAYEHHYKGSSRGRSKSSRFSGGFGARDYRQSSGASSSSFSSSRASSSRSGGGGHGSSRGFGGGGYGGFYNSDGYGGNYNSQGVDWWGN", "note": "Compare with care: the assays were run in different laboratories. ± gives the spread as reported.", "chain of UniProt P26368 (whole entry, looked up)": "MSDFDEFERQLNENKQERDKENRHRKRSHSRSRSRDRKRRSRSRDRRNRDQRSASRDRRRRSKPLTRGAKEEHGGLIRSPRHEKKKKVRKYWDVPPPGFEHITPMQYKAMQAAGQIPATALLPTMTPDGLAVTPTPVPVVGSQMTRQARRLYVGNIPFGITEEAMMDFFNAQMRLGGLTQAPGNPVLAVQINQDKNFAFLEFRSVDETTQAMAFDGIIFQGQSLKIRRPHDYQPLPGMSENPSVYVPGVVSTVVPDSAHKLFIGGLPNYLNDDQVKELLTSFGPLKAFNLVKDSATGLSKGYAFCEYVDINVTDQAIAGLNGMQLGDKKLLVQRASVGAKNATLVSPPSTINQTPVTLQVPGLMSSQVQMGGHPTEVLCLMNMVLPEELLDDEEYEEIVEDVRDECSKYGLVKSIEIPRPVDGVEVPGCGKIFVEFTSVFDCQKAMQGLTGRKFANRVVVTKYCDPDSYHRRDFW"}
{"Molecule": "insulin degludec", "test system": "human", "setting": "subcutaneous, 0.4 IU/kg, 3 FC level, fat content group, single dose, reference formulation", "measurement": "Cmax", "result": "0.0154 ± 0.0024 µg/mL"}
{"Molecule": "Neuropeptide Y", "test": "RP-HPLC", "test system": "HALO Phenyl-hexyl column", "setting": "25 µM, formic acid/methanol, 10 min gradient", "measurement": "retention time", "result": "8.9 min"}
{"Molecule": "AUUUCAUUU (ssRNA)", "target or system": "U2AF2", "test": "sequencing of bound RNA", "test system": "RNA", "setting": "motif only", "measurement": "Kd", "result": "7.57 µM"}
{"Molecule": "insulin", "test": "LC-MS/MS", "test system": "pooled human serum, high level", "setting": "24 h, 4 °C, stability before sample preparation", "how to read": "relative to: untreated control", "measurement": "bias", "result": "-11.9%"}
{"Molecule": "durvalumab", "test system": "human, plasma", "setting": "intravenous, 1500 mg, cycle 4 day 1, with: adavosertib 300 mg once daily", "measurement": "Ctrough", "result": "226 µg/mL"}
{"Molecule": "AGUUAUCAG (ssRNA)", "target or system": "U2AF2", "test": "sequencing of bound RNA", "test system": "RNA", "setting": "motif only", "measurement": "Kd", "result": "15.3 µM"}
{"Molecule": "EHWSYGLRPG", "target or system": "HUVEC", "test": "ICP-OES, item: rhenium", "test system": "peptide", "setting": "24 h", "how to read": "relative to: loaded", "measurement": "cellular uptake", "result": "1.61%"}
{"Molecule": "B1 (human DDX3X)", "target or system": "PP6C (human)", "test": "co-immunoprecipitation, IP-MS", "test system": "CYB5R4 knockout cells", "setting": "concentration not given", "how to read": "relative to: CYB5R4 knockout over parental", "measurement": "log2 fold change", "result": -0.12}
{"Molecule": "adrenomedullin", "test": "RP-HPLC", "test system": "HALO RP-amide column", "setting": "25 µM, formic acid/methanol, 25 min gradient", "measurement": "retention time", "result": "13.8 min"}
{"Molecule": "MLHGVAWQ", "target or system": "HUVEC", "test": "ICP-OES, item: rhenium", "test system": "peptide", "setting": "24 h", "how to read": "relative to: loaded", "measurement": "cellular uptake", "result": "1.66%"}
{"Molecule": "histone H1.1 human", "target or system": "CYB5R4 knockout human cells", "test": "PP4 interaction, 3xFLAG-PP4C IP-MS", "setting": "concentration not given", "how to read": "relative to: CYB5R4 KO over parental", "measurement": "log2 fold change", "result": -1.42}
{"Molecule": "insulin icodec", "test system": "human mild hepatic impairment (Child-Pugh A), serum", "setting": "subcutaneous, 1.5 U/kg single dose", "how to read": "relative to: mild impairment over normal function", "measurement": "AUC(0-inf) ratio", "result": 1.13}
{"note": "A few entries again:"}
{"Molecule": "MLHGVAWQ", "target or system": "HUVEC", "test": "ICP-OES, item: rhenium", "test system": "peptide", "setting": "24 h", "how to read": "relative to: loaded", "measurement": "cellular uptake", "result": "1.66%"}
